Results pooled from the literature.
Lines come from different studies, so protocols differ. ± gives the spread as reported.
aacA4: Aminoglycoside N(6')-acetyltransferase type 1 (aacA4, Klebsiella pneumoniae, UniProt P19650)
Inosine-5'-monophosphate dehydrogenase: Inosine-5'-monophosphate dehydrogenase (Cryptosporidium parvum, UniProt Q8T6T2)
Calmodulin-domain protein kinase 1, putative: Calmodulin-domain protein kinase 1, putative (Cryptosporidium parvum, UniProt A3FQ16)
UDP-N-acetylglucosamine--dolichyl-phosphate N-acetylglucosaminephosphotransferase: UDP-N-acetylglucosamine--dolichyl-phosphate N-acetylglucosaminephosphotransferase (Homo sapiens, UniProt Q9H3H5)
VIM-2: Metallo-beta-lactamase VIM-2 (VIM-2, Escherichia coli, UniProt Q5U7L7)
Leucine--tRNA ligase: Leucine--tRNA ligase (Staphylococcus aureus, UniProt Q2FXH2)

Chains of the proteins cited; added tags and fusions are not shown. Residues count along the entry.
UniProt P19650, whole entry: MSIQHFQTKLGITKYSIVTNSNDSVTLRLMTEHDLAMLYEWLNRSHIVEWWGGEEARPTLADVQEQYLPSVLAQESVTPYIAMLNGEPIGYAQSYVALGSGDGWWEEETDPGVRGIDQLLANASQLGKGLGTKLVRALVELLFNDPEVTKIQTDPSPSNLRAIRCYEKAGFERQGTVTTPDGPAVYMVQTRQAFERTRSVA
UniProt Q8T6T2, whole entry: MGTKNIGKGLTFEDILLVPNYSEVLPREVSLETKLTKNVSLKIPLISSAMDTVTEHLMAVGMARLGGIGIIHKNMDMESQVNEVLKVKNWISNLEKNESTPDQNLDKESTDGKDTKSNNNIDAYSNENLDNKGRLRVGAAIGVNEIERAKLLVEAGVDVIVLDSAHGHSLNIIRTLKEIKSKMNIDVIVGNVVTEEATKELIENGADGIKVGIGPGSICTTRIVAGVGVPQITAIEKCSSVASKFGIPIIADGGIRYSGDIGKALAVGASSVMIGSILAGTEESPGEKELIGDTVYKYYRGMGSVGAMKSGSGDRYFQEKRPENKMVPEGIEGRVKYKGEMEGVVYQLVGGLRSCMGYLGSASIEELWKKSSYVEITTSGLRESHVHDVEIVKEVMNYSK
UniProt A3FQ16, 1-538: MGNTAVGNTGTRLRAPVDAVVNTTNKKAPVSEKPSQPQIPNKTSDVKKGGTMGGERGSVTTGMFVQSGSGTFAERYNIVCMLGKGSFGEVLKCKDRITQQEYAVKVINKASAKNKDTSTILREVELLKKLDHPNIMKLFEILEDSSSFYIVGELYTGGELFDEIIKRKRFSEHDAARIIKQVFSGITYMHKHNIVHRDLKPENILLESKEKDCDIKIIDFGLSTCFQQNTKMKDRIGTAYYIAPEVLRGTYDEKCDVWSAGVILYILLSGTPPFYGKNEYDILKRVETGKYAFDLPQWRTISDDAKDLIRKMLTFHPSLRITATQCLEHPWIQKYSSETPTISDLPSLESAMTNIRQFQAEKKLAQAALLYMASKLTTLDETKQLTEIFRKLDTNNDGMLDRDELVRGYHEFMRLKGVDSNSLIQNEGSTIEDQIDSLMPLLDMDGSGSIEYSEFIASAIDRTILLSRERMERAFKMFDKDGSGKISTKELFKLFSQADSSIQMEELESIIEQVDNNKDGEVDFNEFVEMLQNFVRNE
UniProt Q9H3H5, whole entry: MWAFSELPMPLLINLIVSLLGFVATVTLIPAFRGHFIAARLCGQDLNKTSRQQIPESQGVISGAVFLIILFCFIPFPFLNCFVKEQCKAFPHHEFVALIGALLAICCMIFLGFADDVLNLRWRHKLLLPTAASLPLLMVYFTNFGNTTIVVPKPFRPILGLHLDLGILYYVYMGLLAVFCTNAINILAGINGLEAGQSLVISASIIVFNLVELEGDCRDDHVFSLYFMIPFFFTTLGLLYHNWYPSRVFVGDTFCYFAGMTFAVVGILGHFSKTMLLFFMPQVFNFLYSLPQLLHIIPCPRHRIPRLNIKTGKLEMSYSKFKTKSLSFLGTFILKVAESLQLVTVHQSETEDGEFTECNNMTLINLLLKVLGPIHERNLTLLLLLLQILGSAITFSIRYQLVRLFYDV
UniProt Q2FXH2, whole entry: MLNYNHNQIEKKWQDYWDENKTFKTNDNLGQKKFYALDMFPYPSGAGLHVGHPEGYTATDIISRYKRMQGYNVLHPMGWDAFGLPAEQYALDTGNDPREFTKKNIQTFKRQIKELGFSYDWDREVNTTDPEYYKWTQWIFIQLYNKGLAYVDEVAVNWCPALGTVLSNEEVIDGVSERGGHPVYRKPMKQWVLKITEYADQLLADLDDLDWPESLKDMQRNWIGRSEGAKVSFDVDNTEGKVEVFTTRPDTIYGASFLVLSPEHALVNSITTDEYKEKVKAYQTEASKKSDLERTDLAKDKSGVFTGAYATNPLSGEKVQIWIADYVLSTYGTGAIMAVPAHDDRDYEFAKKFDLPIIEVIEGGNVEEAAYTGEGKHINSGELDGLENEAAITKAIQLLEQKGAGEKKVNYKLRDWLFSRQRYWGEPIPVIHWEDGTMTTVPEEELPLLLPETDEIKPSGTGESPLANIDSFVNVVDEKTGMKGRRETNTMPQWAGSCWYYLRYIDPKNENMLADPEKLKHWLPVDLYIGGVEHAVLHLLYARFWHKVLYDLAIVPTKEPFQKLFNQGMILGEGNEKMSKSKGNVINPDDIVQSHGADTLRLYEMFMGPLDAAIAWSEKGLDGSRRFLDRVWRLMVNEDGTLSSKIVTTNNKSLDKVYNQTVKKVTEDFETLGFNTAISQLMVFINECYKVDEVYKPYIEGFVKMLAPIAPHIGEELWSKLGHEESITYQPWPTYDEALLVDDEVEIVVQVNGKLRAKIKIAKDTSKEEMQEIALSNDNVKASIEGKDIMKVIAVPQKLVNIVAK
UniProt P04629, 33-796 limits assumed: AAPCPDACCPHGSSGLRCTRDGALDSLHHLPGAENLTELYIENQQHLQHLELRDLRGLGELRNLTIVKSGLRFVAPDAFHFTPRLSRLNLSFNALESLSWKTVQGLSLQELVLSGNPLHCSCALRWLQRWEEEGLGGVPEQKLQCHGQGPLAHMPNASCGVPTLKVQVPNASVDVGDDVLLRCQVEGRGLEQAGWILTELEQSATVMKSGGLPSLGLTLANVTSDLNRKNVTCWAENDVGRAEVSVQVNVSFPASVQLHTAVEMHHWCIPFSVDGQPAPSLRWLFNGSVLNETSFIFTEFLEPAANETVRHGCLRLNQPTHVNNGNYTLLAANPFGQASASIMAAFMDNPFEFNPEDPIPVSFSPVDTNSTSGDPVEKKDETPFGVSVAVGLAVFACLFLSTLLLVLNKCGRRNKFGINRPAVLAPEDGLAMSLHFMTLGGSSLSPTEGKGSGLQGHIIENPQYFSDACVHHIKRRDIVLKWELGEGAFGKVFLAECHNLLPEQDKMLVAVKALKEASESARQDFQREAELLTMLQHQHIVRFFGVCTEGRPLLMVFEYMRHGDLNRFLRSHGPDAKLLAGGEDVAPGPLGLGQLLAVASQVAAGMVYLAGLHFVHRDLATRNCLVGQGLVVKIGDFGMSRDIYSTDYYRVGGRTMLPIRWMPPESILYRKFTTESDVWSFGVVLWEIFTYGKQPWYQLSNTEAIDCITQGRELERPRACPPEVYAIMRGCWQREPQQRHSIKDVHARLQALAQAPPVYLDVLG
UniProt P68400, whole entry: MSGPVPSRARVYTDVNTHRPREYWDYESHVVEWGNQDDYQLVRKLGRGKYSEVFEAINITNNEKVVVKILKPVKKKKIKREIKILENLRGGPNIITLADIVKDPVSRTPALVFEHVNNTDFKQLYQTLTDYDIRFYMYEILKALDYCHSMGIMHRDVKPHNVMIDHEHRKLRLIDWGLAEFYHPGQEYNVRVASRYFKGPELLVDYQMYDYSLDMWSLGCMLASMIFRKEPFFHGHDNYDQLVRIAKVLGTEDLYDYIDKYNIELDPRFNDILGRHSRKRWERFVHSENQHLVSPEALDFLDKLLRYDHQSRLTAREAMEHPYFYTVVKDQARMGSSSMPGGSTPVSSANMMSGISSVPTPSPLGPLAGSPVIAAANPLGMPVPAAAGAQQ
UniProt P05067, 672-713 limits assumed: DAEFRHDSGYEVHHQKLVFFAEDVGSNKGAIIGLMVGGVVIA
UniProt P21860, 20-1342 limits assumed: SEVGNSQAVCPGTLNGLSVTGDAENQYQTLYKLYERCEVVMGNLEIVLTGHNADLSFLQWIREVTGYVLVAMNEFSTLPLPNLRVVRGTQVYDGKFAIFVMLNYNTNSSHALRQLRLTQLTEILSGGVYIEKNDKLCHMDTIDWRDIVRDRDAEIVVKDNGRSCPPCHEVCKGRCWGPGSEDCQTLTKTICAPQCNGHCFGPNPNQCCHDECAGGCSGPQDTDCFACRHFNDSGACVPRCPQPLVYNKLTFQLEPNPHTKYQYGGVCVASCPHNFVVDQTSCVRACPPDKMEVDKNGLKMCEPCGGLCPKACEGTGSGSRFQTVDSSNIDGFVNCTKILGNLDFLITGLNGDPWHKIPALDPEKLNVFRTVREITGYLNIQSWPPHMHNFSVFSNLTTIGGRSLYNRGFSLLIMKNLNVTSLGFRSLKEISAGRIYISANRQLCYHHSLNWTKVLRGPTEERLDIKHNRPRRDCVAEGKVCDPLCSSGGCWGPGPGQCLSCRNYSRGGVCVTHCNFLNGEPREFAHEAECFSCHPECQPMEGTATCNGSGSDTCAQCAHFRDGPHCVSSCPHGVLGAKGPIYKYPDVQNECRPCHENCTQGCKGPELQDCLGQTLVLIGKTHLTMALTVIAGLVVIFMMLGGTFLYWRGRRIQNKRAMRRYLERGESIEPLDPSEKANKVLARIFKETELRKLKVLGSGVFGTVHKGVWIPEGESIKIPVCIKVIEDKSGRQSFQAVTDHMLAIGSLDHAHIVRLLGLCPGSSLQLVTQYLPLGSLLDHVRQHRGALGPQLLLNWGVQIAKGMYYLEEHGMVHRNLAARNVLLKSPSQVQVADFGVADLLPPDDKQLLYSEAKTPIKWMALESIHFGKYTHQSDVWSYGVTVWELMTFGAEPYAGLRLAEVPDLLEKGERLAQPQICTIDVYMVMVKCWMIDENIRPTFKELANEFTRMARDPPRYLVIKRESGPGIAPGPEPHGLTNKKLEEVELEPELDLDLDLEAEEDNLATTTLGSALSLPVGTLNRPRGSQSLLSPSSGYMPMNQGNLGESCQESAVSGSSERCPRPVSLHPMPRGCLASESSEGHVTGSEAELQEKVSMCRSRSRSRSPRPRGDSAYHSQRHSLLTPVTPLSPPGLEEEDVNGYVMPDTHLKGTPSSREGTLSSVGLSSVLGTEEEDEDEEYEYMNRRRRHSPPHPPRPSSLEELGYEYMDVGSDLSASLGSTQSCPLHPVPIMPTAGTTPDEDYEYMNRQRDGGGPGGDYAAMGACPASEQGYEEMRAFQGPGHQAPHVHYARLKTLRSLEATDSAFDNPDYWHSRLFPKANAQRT
UniProt P42574, whole entry, looked up: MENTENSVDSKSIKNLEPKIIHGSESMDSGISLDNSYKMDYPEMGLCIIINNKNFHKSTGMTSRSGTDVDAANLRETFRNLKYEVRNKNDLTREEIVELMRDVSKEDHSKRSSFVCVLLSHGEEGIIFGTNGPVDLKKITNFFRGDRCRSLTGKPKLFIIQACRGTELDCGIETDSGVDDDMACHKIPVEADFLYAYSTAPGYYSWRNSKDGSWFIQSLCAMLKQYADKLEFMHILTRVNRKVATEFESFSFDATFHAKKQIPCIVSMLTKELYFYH
UniProt P17921, whole entry: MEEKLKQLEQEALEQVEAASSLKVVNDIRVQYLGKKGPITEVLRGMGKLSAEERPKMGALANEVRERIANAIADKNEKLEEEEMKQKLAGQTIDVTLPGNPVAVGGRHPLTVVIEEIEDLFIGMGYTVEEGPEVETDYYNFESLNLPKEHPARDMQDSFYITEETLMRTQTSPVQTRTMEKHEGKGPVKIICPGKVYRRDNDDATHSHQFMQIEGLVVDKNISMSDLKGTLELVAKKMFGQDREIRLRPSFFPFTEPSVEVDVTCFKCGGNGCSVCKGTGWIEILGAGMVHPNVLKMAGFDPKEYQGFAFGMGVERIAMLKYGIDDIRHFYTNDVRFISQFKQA
UniProt P00784, whole entry, looked up: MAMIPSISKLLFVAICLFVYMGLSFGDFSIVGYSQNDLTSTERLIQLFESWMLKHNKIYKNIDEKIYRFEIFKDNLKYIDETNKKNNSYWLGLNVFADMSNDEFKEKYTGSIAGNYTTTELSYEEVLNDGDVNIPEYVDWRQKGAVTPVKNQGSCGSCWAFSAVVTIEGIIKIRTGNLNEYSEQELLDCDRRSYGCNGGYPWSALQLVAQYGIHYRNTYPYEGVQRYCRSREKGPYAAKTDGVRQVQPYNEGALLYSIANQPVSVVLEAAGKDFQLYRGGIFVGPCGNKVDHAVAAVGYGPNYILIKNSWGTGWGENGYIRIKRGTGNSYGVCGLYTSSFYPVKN
UniProt P26918, whole entry, looked up: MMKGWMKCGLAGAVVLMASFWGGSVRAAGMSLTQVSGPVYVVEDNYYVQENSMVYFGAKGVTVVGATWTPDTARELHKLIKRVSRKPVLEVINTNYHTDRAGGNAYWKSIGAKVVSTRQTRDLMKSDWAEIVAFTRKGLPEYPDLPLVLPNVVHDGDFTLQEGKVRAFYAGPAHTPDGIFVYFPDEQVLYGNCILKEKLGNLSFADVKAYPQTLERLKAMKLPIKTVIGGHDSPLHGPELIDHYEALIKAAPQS
UniProt Q4JH30, 1-414 limits assumed: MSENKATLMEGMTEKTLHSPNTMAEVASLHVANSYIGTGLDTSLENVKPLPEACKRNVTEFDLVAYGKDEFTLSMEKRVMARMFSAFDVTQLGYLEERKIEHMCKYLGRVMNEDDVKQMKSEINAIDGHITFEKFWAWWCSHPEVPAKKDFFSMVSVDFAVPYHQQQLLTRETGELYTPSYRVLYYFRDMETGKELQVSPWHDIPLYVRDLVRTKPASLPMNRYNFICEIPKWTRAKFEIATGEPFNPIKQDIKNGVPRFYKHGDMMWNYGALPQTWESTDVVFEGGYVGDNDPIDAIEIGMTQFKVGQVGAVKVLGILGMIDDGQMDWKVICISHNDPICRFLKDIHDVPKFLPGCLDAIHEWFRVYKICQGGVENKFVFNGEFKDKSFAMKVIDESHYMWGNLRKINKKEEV

| SMILES | target | test | system | setting | IC50 |
| --- | --- | --- | --- | --- | --- |
| CCCC[C@H](CN)NC[C@@H]1CCCN1C[C@@H](CO)NC[C@@H](NCCC12CC3CC(CC(C3)C1)C2)c1ccccc1 | aacA4 | acetyltransferase activity, inhibitor | – | – | 10700 nM |
| O=C(Cn1c(-c2nccs2)nc2ccccc21)Nc1ccc(Cl)cc1 | Inosine-5'-monophosphate dehydrogenase | enzyme activity, inhibitor, NADH fluorescence | recombinant enzyme | – | 30 ± 10 nM |
| NC[C@@H](NC[C@@H]1CCCN1C[C@@H](CO)NC[C@@H](NCCC1CC2CCC1C2)c1ccccc1)c1ccccc1 (stereo partly drawn) | aacA4 | acetyltransferase activity, inhibitor | – | – | 4900 nM |
| [2H]c1c([2H])c(S(=O)(=O)N2CCC([2H])(C(=O)Nc3ccc4cc(C(=O)O)ccc4c3)CC2)c(C([2H])([2H])[2H])c([2H])c1C([2H])([2H])[2H] | Bifunctional epoxide hydrolase 2 (EPHX2, Homo sapiens, UniProt P34913) | – | – | pH 7.0, 30 °C, together with: CMNPC substrate 5 µM | 58 nM |
| COCCCn1nc(-c2ccc(CC(=O)Nc3cccc(F)c3)cc2)c2c(N)ncnc21 | High affinity nerve growth factor receptor (NTRK1, Homo sapiens, UniProt P04629) | inhibitor | – | – | 1740 ± 430 nM |
| COC(C)(C)Cn1nc(-c2ccc3cc(OC4CC4)ccc3c2)c2c(N)ncnc21 | Calmodulin-domain protein kinase 1, putative | enzyme activity, inhibitor, Kinase-Glo | – | together with: syntide-2 | 1330 nM |
| Cc1ccc(N(C)c2cc(N(C)C3CC3)n3ncc(C#N)c3n2)cc1NC(=O)C1CC1 | Casein kinase II subunit alpha (CSNK2A1, Homo sapiens, UniProt P68400) | inhibitor | – | – | > 10000 nM |
| COc1cccc(-c2cc(Nc3c(Nc4ccc(C(F)(F)F)cc4)c(=O)c3=O)ccc2OC)c1 | Heat shock protein HSP 90-alpha, with Aha1 (HSP90AA1, Homo sapiens, UniProt P07900) | Hsp90-Aha1 interaction, inhibitor, AlphaScreen | – | – | 2660 ± 1920 nM |
| C=CC(=O)Nc1cc(-n2c(=O)ccc3cnc4ccc(-c5cn[nH]c5)cc4c32)ccc1C | Tyrosine-protein kinase BTK (BTK, Homo sapiens, UniProt Q06187) | enzyme activity, inhibitor, Invitrogen SelectScreen | – | – | 8 nM |
| Nc1nc(N)c2c(Cl)c(CNc3ccc(C(=O)O)cc3)ccc2n1 | Dihydrofolate reductase (DHFR, Homo sapiens, UniProt P00374) | enzyme activity, inhibitor | – | – | 7.6 nM |
| CO[C@H]1[C@H](O[C@H]([C@H]2O[C@@H](n3ccc(=O)[nH]c3=O)[C@H](O)[C@@H]2O)[C@H](NCCCNC(=O)[C@@H](NC(=O)[C@@H](NC(=O)N[C@H](C(=O)O)C(C)C)[C@@H]2CCNC(=N)N2)[C@@H](OC(=O)CCCCCCCCCCCCNC(=N)N)C(C)C)C(N)=O)O[C@H](CN)[C@H]1O | UDP-N-acetylglucosamine--dolichyl-phosphate N-acetylglucosaminephosphotransferase | enzyme activity, inhibitor | – | – | 200 ± 58 nM |
| NC[C@@H](NC[C@@H]1CCCN1C[C@@H](CO)NC[C@@H](NCCC12CC3CC(CC(C3)C1)C2)c1ccccc1)c1ccccc1 | aacA4 | acetyltransferase activity, inhibitor | – | – | 5700 nM |
| CCc1cc(-c2ccc3cnn(C)c3c2)cc2c(Nc3cccc(OC)c3)c(C(N)=O)cnc12 | cAMP phosphodiesterase B2 (Trypanosoma brucei, UniProt Q38F42) | enzyme activity, inhibitor | – | – | 5600 ± 3400 nM |
| CN(C)c1cccc(Oc2cnc(Nc3ccccc3)nc2)c1 | Amyloid-beta precursor protein, Aβ42 with fibrinogen (APP, Homo sapiens, UniProt P05067) | AlphaLISA | – | – | 1670 nM |
| CCC(=O)Nc1cc(-c2nn(C3CCN(CCNC(=O)[C@H](C)CCC45CC6CC(CC(C6)C4)C5)CC3)c3ncnc(N)c23)ccc1Oc1ccccc1 | Receptor tyrosine-protein kinase erbB-3 (ERBB3, Homo sapiens, UniProt P21860) | ATP-site binding, LanthaScreen TR-FRET | – | 3 h | 326 nM |
| O=S(=O)(NCc1[nH]nnc1CNC1CCCCC1)c1ccccc1 | VIM-2 | enzyme activity, inhibitor | – | together with: nitrocefin | 130 ± 10 nM |
| O=S(=O)(Nc1ccc2c(c1)B(O)OC2)c1ccccc1F | Leucine--tRNA ligase | – | – | – | 28000 ± 1000 nM |
| [N-]=[N+]=CC(=O)[C@H](Cc1cccc([N+](=O)[O-])c1)NC(=O)OCc1ccccc1 | Caspase-3 (CASP3, Homo sapiens, UniProt P42574) | enzyme activity, inhibitor | – | together with: Ac-DEVD-AMAC substrate | > 40000 nM |
| CO[C@H]1[C@H](O[C@H]([C@H]2O[C@@H](n3ccc(=O)[nH]c3=O)[C@H](O)[C@@H]2O)[C@H](NCCCNC(=O)[C@@H](NC(=O)[C@@H](NC(=O)N[C@H](C(=O)O)C(C)C)[C@@H]2CCNC(=N)N2)[C@@H](OC(=O)CCCCCCCCCCCCN(O)C(=N)N)C(C)C)C(N)=O)O[C@H](CN)[C@H]1O | UDP-N-acetylglucosamine--dolichyl-phosphate N-acetylglucosaminephosphotransferase | enzyme activity, inhibitor | – | – | 160 ± 15 nM |
| C1=C(CCNCc2ccccc2)CCCC1 | Phenylalanine--tRNA ligase alpha subunit, with beta subunit (pheS, Bacillus subtilis, UniProt P17921) | phenylalanine activation, inhibitor | – | – | > 300 µg/mL |
| O=C(Cn1c(-c2nccs2)nc2ccccc21)Nc1ccc2ccccc2c1 | Inosine-5'-monophosphate dehydrogenase | enzyme activity, inhibitor, NADH fluorescence | recombinant enzyme | – | 8 ± 3 nM |
| CC(Oc1ccccc1)C(=O)Nc1ccc(Cl)cc1 (stereo not drawn) | Inosine-5'-monophosphate dehydrogenase | enzyme activity, inhibitor | – | corrected for open enzyme conformation | 660 nM |
| CC(C)CC(NC(=O)C1OC1C(=O)O)C(=O)NCCCCN=C(N)N (stereo not drawn) | Papain (Carica papaya, UniProt P00784) | enzyme activity, inhibitor | – | – | 0.159 nM |
| CNC(=O)COCC(=O)NCCCCCCCNC(=O)COCC(=O)Nc1ccc([C@H](CCN2[C@@H]3CC[C@H]2C[C@H](n2c(C)nnc2C(C)C)C3)NC(=O)C2CCC(F)(F)CC2)cc1 | C-C chemokine receptor type 5 (CCR5, Homo sapiens, UniProt P51681) | calcium mobilization, antagonist | MOLT-4 cells expressing CCR5 | together with: RANTES (CCL5) | 833 ± 150 nM |
| CC(C)OCc1nn[nH]c1CNS(=O)(=O)c1ccccc1 | VIM-2 | enzyme activity, inhibitor | – | together with: nitrocefin | 850 ± 70 nM |
| C[C@H](CS)C(=O)N[C@@H](Cc1c[nH]c2ccccc12)C(=O)O | Metallo-beta-lactamase type 2 (Aeromonas hydrophila, UniProt P26918) | enzyme activity, inhibitor | – | – | > 400000 nM |
| COC(C)(C)Cn1cc(-c2ccc3cc(OC4CC4)ccc3c2)c2c(N)ncnc21 | Calmodulin-domain protein kinase 1 (CDPK1, Toxoplasma gondii, UniProt Q9BJF5) | enzyme activity, inhibitor, Kinase-Glo | – | together with: syntide-2 | 15 nM |
| O=[N+]([O-])c1ccc(S(=O)(=O)Nc2ccc3c(c2)B(O)OC3)cc1F | Leucine--tRNA ligase | – | – | – | > 100000 nM |
| CC(C)(O)Cn1nc(-c2ccc3nc(OC4CC4)ccc3c2)c2c(N)ncnc21 | Calmodulin-domain protein kinase 1, putative | enzyme activity, inhibitor, Kinase-Glo | – | together with: syntide-2 | 3.2 nM |
| CCCCn1cc[n+](CC(O)(P(=O)([O-])O)P(=O)(O)O)c1 (stereo not drawn) | vacuolar soluble pyrophosphatase 1 (Trypanosoma cruzi, UniProt Q4JH30) | exopolyphosphatase activity, inhibitor, malachite green phosphate | – | 10 min, pH 6.5, 30 °C, together with: 100 µM polyphosphate | ~45000 nM |
